Published values pooled from the literature.
Every numbered part comes from another study and shows a few of its results, in no order. Changes are numbered by the printed parent chain.

Study 1 — target: CCND2, cyclin fold, Cln2 fusion (human); method: yeast growth competition, sequencing; sample: yeast; notes: weak parent motif; reference: not given; direction: higher = stronger binding
Parent: PKMYT1 docking peptide (human); SFEPRNLLSLFED; partner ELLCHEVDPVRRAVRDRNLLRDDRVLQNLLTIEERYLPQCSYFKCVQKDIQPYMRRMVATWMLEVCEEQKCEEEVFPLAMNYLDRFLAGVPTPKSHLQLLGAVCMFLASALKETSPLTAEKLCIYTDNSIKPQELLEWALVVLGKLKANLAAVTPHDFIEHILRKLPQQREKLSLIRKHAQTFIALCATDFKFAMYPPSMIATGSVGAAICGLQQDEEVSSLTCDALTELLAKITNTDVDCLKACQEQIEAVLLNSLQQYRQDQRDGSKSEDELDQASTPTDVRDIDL
Variant | normalised enrichment score
SFEPRNLLFLFED [S9F] | 0.298
SFSPRNLLSLFED [E3S] | -0.246
SFETRNLLSLFED [P4T] | 0.167
SFEPRNLLSCFED [L10C] | 0.169
SFEPRNLLSLFQD [E12Q] | -0.0269
SFEPRNLLSLFEQ [D13Q] | -0.177
SFEPRNLLSLFWD [E12W] | -0.0457
SFEPRNLLSLFEG [D13G] | 0.0905
VFEPRNLLSLFED [S1V] | 0.37
SFEPRNPLSLFED [L7P] | 0.0935
SFIPRNLLSLFED [E3I] | -0.147
SFEPRNLLSLVED [F11V] | -0.146
SFEFRNLLSLFED [P4F] | 0.0533
SDEPRNLLSLFED [F2D] | 0.303
SFEPRNLLSLFFD [E12F] | 0.104
SFEPENLLSLFED [R5E] | 0.241
SFEARNLLSLFED [P4A] | 0.17
AFEPRNLLSLFED [S1A] | -0.0121
SCEPRNLLSLFED [F2C] | 0.142
YFEPRNLLSLFED [S1Y] | -0.267
SFEPRNLLSLFEY [D13Y] | 0.153
MFEPRNLLSLFED [S1M] | 0.171
SFEPLNLLSLFED [R5L] | 0.262
SFEPRNLLSLYED [F11Y] | -0.0187

Study 2 — method: protein binding microarray; molecule type: double-stranded DNA, one strand shown; sample: in vitro; tested at: not given; reference: not given; direction: higher = stronger binding
Target: Histone acetyltransferase KAT6A, winged helix 2, GST fusion (KAT6A, Homo sapiens, UniProt Q92794, residues 85-181)
Notes: 8-mer, flanks averaged, mean of 2 arrays, mostly near background
Target sequence (chain): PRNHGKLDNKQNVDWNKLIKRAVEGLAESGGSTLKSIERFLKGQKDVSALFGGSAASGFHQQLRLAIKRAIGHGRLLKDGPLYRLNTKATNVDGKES
Strand | E-score
TCCCGTCA | -0.0618
AAGTCACA | -0.0891
AACCCCAT | -0.179
AAGAGCTG | -0.0807
ATTCCAAA | -0.0215
CTGCACTA | 0.142
AGCAGGCC | 0.155
GGATCCAC | -0.115
CATGACCC | -0.126
GGATGGGA | -0.0966
AAGAAAAC | -0.0414
ACCTGAAG | -0.127
GACCTATA | 0.000125
CGTCAGTA | -0.0957
ACGAACCA | 0.086
CAAGGCCC | 0.219
CTAGGGTA | -0.126
CGACTTAC | -0.157
ATTAAGCG | -0.0426
ACGGCAAA | 0.0399

Study 3 — method: RNA Bind-n-Seq; molecule type: RNA; sample: in vitro; tested at: 365 nM; reference: no-protein control; direction: higher = stronger binding
Target: RNA binding protein fox-1 homolog 2, RRM domain, GST-SBP tag (RBFOX2, Homo sapiens, UniProt O43251-10, residues 100-194)
Notes: natural RNA segment, single round, ends assumed
Constant ends, left off below: GGGAGUUCUACAGUCCGACGAUC … UGGAAUUCUCGGGUGCCAA
Construct (chain): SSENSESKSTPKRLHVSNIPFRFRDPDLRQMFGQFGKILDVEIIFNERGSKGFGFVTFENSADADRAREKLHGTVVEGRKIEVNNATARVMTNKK
Strand | RBNS enrichment (R)
GGGCCACACUGCUGCUGUGCCAAGAAGGUGUACAGCCUCCCCAGGAUGGGGCCUCAUACAACCCUUCAUCUGCACUCAACAUUUAAUCGUGUCCUUGCUGUCUUUUUAUU | 0.367
UGUCUUAGUGGAGUCAGAGCCCUGUUUGGUAUGUGUUUUUCAUGCUAAGUCUAAAUUGUCUUUUCAUUUCAUGAUGCAUUUUUUCUCUUUUGUCAGGAUAACAUCAUAUA | 0.283
AAUGCACUUGUUGUCUGUCUUCUUUAAUCAAAUCACAUCUUAUAUACAGCAGUCAGAGAUGAGUAUACUAGAAUCAUGGAUUGCUGGAGGUCUUUUAAUCUGAUGUUCUC | 0.539
AAUGAAGGCUGACACAGUCCCCCUGCUGAUCAUUUUGCUUUAUAUAUUAAAAAAUGCUGCAAAAAUCUGUCUUGCCUGGAAGGAGGGUGGGGCCGACUGGACCGUAGUAA | 0.515
GGUUUAAACCAAACGGAACUCUUCAUCUUAAACUACACGUUGAAAAUCAACCCAAUAAUUCUGUAUUAACUGAAUUCUGAACUUUUCAGGAGGUACUGUGAGGAAGAGCA | 11.3
CUUUCUCAACAAAUUAGUCCAUCUCAUUGAUGUACCACAGAAAUCCAAAGCUUUGCUGUCAUCACAUAAAUGAAUUAAAUCACAUGUGAAAGGGAACACACCCAAUUUUA | 0.25
CCUGCCCAGACAAAGCCCCGCCUUCCCCAAAGCAGAGGGGCUGUCUGUGUCUCCAGAAAGGGGACAUCGGGGGGGAGGGGGGCUCAGAAAGGAGAAGGGCUGUGAUCUCC | 0.641
CUCCUUCCAGGAGGGGACCCUCAGCCCUGUGCCCCCCACCACUUCAGGCCACACCAGGUUCCCUCUGCAAGGGCCUCGGCUCAGUCGUGUGCACUUCCUCGGAGAGCCUU | 0.212
CCAGUCCAGGUUGGAAAGAAGUCUCCUUAGUGUCAGAUUAAGCCCCAUCUCUUAACAAUAUGGACAGAUGAGUGUGCCAUGGCCAUGAGCUAUUUCCUAACGCAGAAGGA | 0.786
CAGACAAGGAACUUGCUGAAAGGCCAACCAUUUCAGGAUCAGUCAAAGGCAGCAAGCAGAUAGACUCAAGGUGUGUGAAAGAUGUUAUACACCAGGAGCUGCCACUGCAU | 0.198
UCAGGUCUCAGCUAUAAUUCUGUUAUAUGAGGGGCAGUGGACAGUUCCCUAUGCCAACUCACGACUCCUACAGGUACUAGUCACUCAUCUACCAGAUUCUGCCUAUGUAA | 0.363
UUCCUCCCACACCCUGCCAGCCUUGCAUAAGCCAUUUGUUGCAGCAUUUGUUGCUCUUGGUCCAGUCCGCCUGCCUCCUUAGGAGACCGUUCCAUGACAUGCAAGGGGAA | 3.3

Study 4 — method: aptamer microarray, sandwich; molecule type: DNA with 2'F-ANA; sample: in vitro; tested at: 200 nM; with: Cy3 exosite-II aptamer, 400 nM; direction: higher = stronger binding; strand: GGTTGGTGTGGTTGG
Target: Prothrombin, mature alpha-thrombin (F2, Homo sapiens, UniProt P00734)
Notes: whole 15-mer aptamer, many near background
Modification | mean fluorescence intensity
2'F-ANA at 2 4 5 7 8 9 10 13 15 | 47.1 a.u.
2'F-ANA at 2 4 7 8 9 11 12 | 562 a.u.
2'F-ANA at 1 2 3 4 7 9 14 | 79.7 a.u.
2'F-ANA at 1 3 4 11 15 | 182 a.u.
2'F-ANA at 1 3 5 7 8 10 11 15 | 46 a.u.
2'F-ANA at 1 4 6 7 9 10 11 | 50.3 a.u.
2'F-ANA at 1 2 4 5 6 8 10 13 14 15 | 50.2 a.u.
2'F-ANA at 1 3 4 9 10 11 14 15 | 57.9 a.u.
2'F-ANA at 1 2 5 8 11 14 15 | 51.1 a.u.
2'F-ANA at 3 7 8 9 14 | 650 a.u.
2'F-ANA at 1 3 4 5 7 8 9 10 13 | 45.2 a.u.
2'F-ANA at 4 5 8 9 10 11 12 13 15 | 46.6 a.u.
2'F-ANA at 4 7 8 9 14 15 | 115 a.u.
2'F-ANA at 1 2 3 4 5 8 10 11 13 14 | 141 a.u.
2'F-ANA at 2 3 4 5 10 11 12 14 15 | 49.3 a.u.
2'F-ANA at 1 3 5 6 7 8 10 12 14 | 45.1 a.u.
2'F-ANA at 2 4 5 7 8 9 14 | 44.5 a.u.
2'F-ANA at 1 3 7 8 11 15 | 323 a.u.
2'F-ANA at 1 4 5 10 14 | 115 a.u.
2'F-ANA at 1 6 7 9 11 12 13 | 205 a.u.
2'F-ANA at 1 3 5 10 11 14 | 59.6 a.u.
2'F-ANA at 1 2 3 5 6 8 10 11 14 15 | 76.8 a.u.
2'F-ANA at 1 4 5 6 10 12 14 15 | 45.7 a.u.
2'F-ANA at 1 2 5 6 7 8 11 12 13 15 | 98.5 a.u.
2'F-ANA at 1 4 6 8 9 10 13 15 | 94 a.u.

Study 5 — method: protein-binding microarray; molecule type: double-stranded DNA, one strand shown; sample: in vitro; tested at: 940 nM top; notes: 60-bp whole probe; with: salmon DNA 0.4 mg/ml; reference: random background probes; direction: higher = stronger binding; constant ends, left off below: GCCTAGCAC … GTCTTGATTCGCTTGACGCTGCTG
Target: Interferon regulatory factor 5, full length, phosphomimetic (IRF5, Homo sapiens, UniProt Q13568-2, residues 1-514, S451D/S453D/S456D/S462D)
Strand | fitted relative affinity
TCACTGATCCATTTTGGACTGTGCTAG | -0.0874 z-score
TTCCTTTCTCTTCCGTTAGCGTGCTAG | 2.71 z-score
TTAGGACTGGATTATCGGTTAGTGCTA | -0.328 z-score
GACGGTATCGACTTTCGGGAAGTGCTA | 4.77 z-score
TCAGGTATTTTTCTAAAACTGTGCTAG | 0.0431 z-score
GACGGACTCGGACTGGGGACGTGCTAG | -0.502 z-score
GAGGATCTCAGTTTCGAGACGTGCTAG | 3.29 z-score
GACGATACCGGGTTTCGAGACGTGCTA | 2.51 z-score
TTAGCTTTCGGTATCGGTTAGTGCTAG | 9.13 z-score
TCCTCTTTCTCTGCTACCCTCGTGCTA | 2.23 z-score
GACGATCTCAGTATCAAGACGTGCTAG | 0.28 z-score
GACGGTCTCGGTCTCGGGGCGTGCTAG | 3.68 z-score
ATAGATATGCCAAATCTGTGTGTGCTA | -0.324 z-score
TTAGGTCTCCATCTCCTTTAGTGCTAG | 0.348 z-score
TTAGGTTTCGGTATCGGTTCGTGCTAG | 15.7 z-score
TGTTTTTTGGTTTCTGGTTTGTGCTAG | 4.68 z-score
GACGGTTTCCTTCTCCTGTCGTGCTAG | 3.88 z-score
TTAGTTATCGGTCTCGGTTAGTGCTAG | 3.37 z-score
ACTCCTGTACATCTATGTAGGTGCTAG | 0.156 z-score

For quick reference, copied from above (study 3):
Strand | RBNS enrichment (R)
CUCCUUCCAGGAGGGGACCCUCAGCCCUGUGCCCCCCACCACUUCAGGCCACACCAGGUUCCCUCUGCAAGGGCCUCGGCUCAGUCGUGUGCACUUCCUCGGAGAGCCUU | 0.212
CCAGUCCAGGUUGGAAAGAAGUCUCCUUAGUGUCAGAUUAAGCCCCAUCUCUUAACAAUAUGGACAGAUGAGUGUGCCAUGGCCAUGAGCUAUUUCCUAACGCAGAAGGA | 0.786
UUCCUCCCACACCCUGCCAGCCUUGCAUAAGCCAUUUGUUGCAGCAUUUGUUGCUCUUGGUCCAGUCCGCCUGCCUCCUUAGGAGACCGUUCCAUGACAUGCAAGGGGAA | 3.3
UCAGGUCUCAGCUAUAAUUCUGUUAUAUGAGGGGCAGUGGACAGUUCCCUAUGCCAACUCACGACUCCUACAGGUACUAGUCACUCAUCUACCAGAUUCUGCCUAUGUAA | 0.363
CCUGCCCAGACAAAGCCCCGCCUUCCCCAAAGCAGAGGGGCUGUCUGUGUCUCCAGAAAGGGGACAUCGGGGGGGAGGGGGGCUCAGAAAGGAGAAGGGCUGUGAUCUCC | 0.641
UGUCUUAGUGGAGUCAGAGCCCUGUUUGGUAUGUGUUUUUCAUGCUAAGUCUAAAUUGUCUUUUCAUUUCAUGAUGCAUUUUUUCUCUUUUGUCAGGAUAACAUCAUAUA | 0.283
AAUGAAGGCUGACACAGUCCCCCUGCUGAUCAUUUUGCUUUAUAUAUUAAAAAAUGCUGCAAAAAUCUGUCUUGCCUGGAAGGAGGGUGGGGCCGACUGGACCGUAGUAA | 0.515
